# Assay results pooled from the literature.
# Parts stem from different laboratories: compare values within a part only. Substitutions count along the parent as printed.
# Sequence of UniProt P9WI81 (whole entry, looked up): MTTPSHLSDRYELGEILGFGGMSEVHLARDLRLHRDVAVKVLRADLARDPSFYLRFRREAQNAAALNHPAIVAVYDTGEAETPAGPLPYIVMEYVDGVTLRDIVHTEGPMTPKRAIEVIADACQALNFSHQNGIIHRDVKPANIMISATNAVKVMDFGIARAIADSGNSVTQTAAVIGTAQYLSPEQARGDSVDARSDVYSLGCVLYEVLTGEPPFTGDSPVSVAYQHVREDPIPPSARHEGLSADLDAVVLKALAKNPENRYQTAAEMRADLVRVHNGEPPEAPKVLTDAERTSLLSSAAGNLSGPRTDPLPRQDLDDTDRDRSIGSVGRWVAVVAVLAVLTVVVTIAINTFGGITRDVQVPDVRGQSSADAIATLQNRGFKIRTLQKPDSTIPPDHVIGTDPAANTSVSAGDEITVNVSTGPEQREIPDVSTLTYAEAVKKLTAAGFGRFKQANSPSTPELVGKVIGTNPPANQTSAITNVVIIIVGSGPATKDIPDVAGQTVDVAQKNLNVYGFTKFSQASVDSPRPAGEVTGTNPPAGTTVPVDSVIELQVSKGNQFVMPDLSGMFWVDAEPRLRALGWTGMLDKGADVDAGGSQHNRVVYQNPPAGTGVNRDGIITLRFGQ

# Set 1
# Target: CCNB2, cyclin fold, Cln2 fusion (human)
# Method: yeast growth competition, sequencing
# Medium: yeast
# Setting: strong parent motif
# Baseline: not given
# Reading: higher = stronger binding
# Starting sequence: viral docking peptide; TSVRRALFTGGSD
Variant,normalised enrichment score
TSVRFALFTGGSD [R5F],-0.251
TSVDRALFTGGSD [R4D],-0.369
TSVRRMLFTGGSD [A6M],0.53
TSVRRALFFGGSD [T9F],1.59
TSVRRALITGGSD [F8I],0.192
TSVRRWLFTGGSD [A6W],0.102
TSVRAAAFTGGSD [R5A L7A],-0.207
TSVRRALFTGNSD [G11N],0.427

# Set 2
# Target: HLA class I histocompatibility antigen, A alpha chain, allele A*80:01 (Homo sapiens, UniProt P04439)
# Observed: peptide-MHC binding
# Form: peptide
# Concentration: concentration not given
Molecule,binding
KQWIVAGAI,inactive
RTYSLLNRK,inactive
VLSDLCNFL,inactive
SGLPGIFIV,inactive
SSEADCFTY,inactive
SQFNHWFGE,inactive
AFMATNKAY,inactive
GGRKLKLTK,inactive

# Further values, each from its own experiment
Structure (SMILES),tested on,test,setting,scale,endpoint,value
Nc1cnc(N2CCc3cc(S(=O)(=O)Nc4c(F)cc(Cl)cc4F)cc(N4CCCC4=O)c32)nc1,"Serine/threonine-protein kinase PknB (pknB, Mycobacterium tuberculosis, UniProt P9WI81)","cell-free assay, competition with immobilised ligand",1 µM,,remaining binding,96%
C[C@]12COC(=O)C[C@@H]1CC[C@@H]1[C@@H]2CC[C@@]2(C)[C@H]1CC[C@]2(C)O,HEK-293T/ACE2,Hoechst nuclei count,"concentration not given, 16 (unit not given)",baseline: vehicle,viability,105%

# For quick reference, copied from above (set 2):
Molecule,binding
SQFNHWFGE,inactive
AFMATNKAY,inactive
GGRKLKLTK,inactive
